Published values of several laboratories.
A part holds a random share of what one study measured.

Study 1 — method: RNA Bind-n-Seq; molecule type: RNA; matrix: in vitro; concentration: not given; baseline: input RNA pool; reading: higher = stronger binding
Target: RING finger protein unkempt homolog, zinc fingers 1-6, GST-SBP tag (UNK, Homo sapiens, UniProt Q9C0B0, residues 30-357)
Notes: RNA with constant flanks, human-mouse chimeric sites, ends assumed
Construct (chain): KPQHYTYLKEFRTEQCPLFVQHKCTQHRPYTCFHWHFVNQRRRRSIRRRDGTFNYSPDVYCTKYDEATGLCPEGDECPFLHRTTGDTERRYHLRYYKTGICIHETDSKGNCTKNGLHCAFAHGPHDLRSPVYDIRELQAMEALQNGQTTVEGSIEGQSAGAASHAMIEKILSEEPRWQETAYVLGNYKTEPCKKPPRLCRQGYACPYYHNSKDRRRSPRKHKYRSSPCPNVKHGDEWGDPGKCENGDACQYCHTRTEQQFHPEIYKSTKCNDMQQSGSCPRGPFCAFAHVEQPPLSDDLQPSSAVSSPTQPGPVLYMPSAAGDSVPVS
| Strand | bound/input enrichment |
| --- | --- |
| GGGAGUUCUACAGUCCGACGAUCUCAGGAACCCAGACAAACAUGAAUGUAAAUGAAGUCAUUAGCAACAGAGCAAUUGAAAUGUUAGGAGGUGAACUUGGCAGCAAGAAGCCUGUGCACCCCAACGAUCAUGUUAAUAAAAGCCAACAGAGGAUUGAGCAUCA | 0.328 ratio |
| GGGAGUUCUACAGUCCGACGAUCCAGCCUCAGAGCCCAGACUUCCUGGAUAUUACCAACCCCAAAGCCGUAUUAGAAAAUGCAUUGAGAAACUUCGCCUGUCUGACGACUGGAGAUGUGAUUGCUAUCAACUACAAUGAGAAGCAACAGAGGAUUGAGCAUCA | 0.525 ratio |
| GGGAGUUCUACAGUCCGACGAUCCAACCUCAGAGCCCAGACUUCCUGGAUAUUACCAACCCUAAAGCGGUAUUAGAAAAUGCAUUGAGAAACUUCGCCUGUCUGACGACUGGAGAUGUGAUUGCCAUCAACUACAAUGAGAAGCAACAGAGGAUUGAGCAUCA | 0.312 ratio |
| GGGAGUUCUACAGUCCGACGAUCGUUCGGCUCUGGGAUCAUGCCACAAUGACAGAAGUGAAAUCUCUAAAUUUUAAUAUGUCUGUUAGCAGCAUGGAGUAUAUUCCUGAAGGAGAGAUUUUGGUUAUUACUUAUGGACGAUCUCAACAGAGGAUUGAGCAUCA | 0.356 ratio |
| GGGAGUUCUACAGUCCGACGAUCUUAAUCCCCUUUACUGCUCCACCACUGCUCAUGGUAAUGACAAAAACUUAUAUCCCCGUCCUAGCUUUCACUCAGAUGGCUUAUGGAGCCGGUUUCCUAGCUUUCUUGGGAGGGAUCAGACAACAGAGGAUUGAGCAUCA | 0.268 ratio |
| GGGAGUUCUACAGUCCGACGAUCUUUGUAUUUAUGCUAAGCACACGUGCUGGUGGUCUUGGCAUCAAUCUUGCAACUGCUGAUGUAGUCAUUUUAUAUGACUCAGAUUGGAAUCCGCAAGUUGAUCUUCAGGCUAUGGACCGUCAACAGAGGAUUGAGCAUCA | 0.18 ratio |
| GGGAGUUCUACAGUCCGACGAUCGGUGGGGUGGUCAUUGCCGUUUGAGCUGCUGAUUUUCAUGAGUCGCCUUCAAAACUCUCGUGUAGGGUUGACACUGUAAGGGGUGGGGGGAUCCAGCUUAUUCUUUUAUUUUCAAGUCCACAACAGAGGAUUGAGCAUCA | 0.532 ratio |
| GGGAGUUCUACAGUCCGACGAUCAACAGAUUGUCUUUAAGCAUUCCAAGCGAGAAUGCUGGGGUGAUCAUUGUUGCCCAUAUAUAGUAAUACUGAGCUUUAAUGCUGUUCCAUGUUACAUUGAUGUUCUUCUCCAGAAUUGUUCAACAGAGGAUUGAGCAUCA | 0.355 ratio |
| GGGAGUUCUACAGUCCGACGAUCGUGACAGGUGUUAAGAUUUCCCCUCAGCAAAGAAGUGCAGUAGUCACCAUAAUUCCAUCUGUGGUGAGUGCCAGUCAGAUAAAAGAGCUGGUCCCAGACCUCAGUUUAGACAUGGGAACUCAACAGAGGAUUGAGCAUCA | 0.327 ratio |
| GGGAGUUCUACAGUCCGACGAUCAGGAGGAGGUUAAAGGGUGAGAGUGGGGUGGAAGACUGUGUCAUGGCUCUGGAGACAUUGUUUAGUGUCCUGCUUUCUCUGUGCAGACUGAUGGCCCCUUACACGCCCUUUCUGACUGAGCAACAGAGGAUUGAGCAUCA | 0.0853 ratio |
| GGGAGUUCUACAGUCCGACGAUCUAAGUUAAGCUUUUAAUCUUUGUAAAUUCUUAACAUUUUUAUAUUGCCAUGUUUAUUUUGUUUGGGUAAUUUGGUUCAUUAAGUACAUAGCUAAGGUACAUCUUUCAUUUUUCAGUAAUUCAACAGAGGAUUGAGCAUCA | 1.28 ratio |

Study 2 — method: RNA Bind-n-Seq; molecule type: RNA; matrix: in vitro; concentration: 365 nM; baseline: no-protein control; reading: higher = stronger binding
Target: RNA binding protein fox-1 homolog 2, RRM domain, GST-SBP tag (RBFOX2, Homo sapiens, UniProt O43251-10, residues 100-194)
Notes: natural RNA segment, single round, ends assumed
Residues (chain): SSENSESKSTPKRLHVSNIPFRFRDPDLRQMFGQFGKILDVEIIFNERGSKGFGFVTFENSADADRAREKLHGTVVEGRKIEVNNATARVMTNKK
| Strand | RBNS enrichment (R) |
| --- | --- |
| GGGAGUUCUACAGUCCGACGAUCCAAAUUUGGAAAAGUUGUCCCAUCCCUUCCCCCUUUGCCCCAGUGUCCCUGCUCACUUCCAGUCAGGUCUCAGCUCCACCCCACUGUUUCUUGGUCAGCCUCAGUGAUGGUGGAAUUCUCGGGUGCCAA | 0.549 |
| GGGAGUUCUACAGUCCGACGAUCACUCUAGGAUGAAGGCCUUGAAUAUCGAUCGCUGCCAGUCCCUAAUAAGACUUUCCCUGCCAACCAGGACAGCCUGGACCAUGCCUGCCUGUUCACUGUUUCAGGCUGCUUGGAAUUCUCGGGUGCCAA | 0.512 |
| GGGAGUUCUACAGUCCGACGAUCCCCUGCGCCCCAUUUGAAUACGGCCAGAGCCUGCUGGUUCACUUUGGGUAGAGCCGUGCCUCUUGGGCAGGCUCCCAUAGUGACCACGUCCCCACGAAUGGGAAAGCACGUGGAAUUCUCGGGUGCCAA | 1.29 |
| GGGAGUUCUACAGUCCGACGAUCAAAGGUUAGUAUCAUCAGAUAGCAUCUUAUACGAGUAAUAUGCCUGCUAUUUGAAGUGUAAUUGAGAAGGAAAAUUUUAGCGUGCUCACUGACCUGCCUGUAGCCCCAGUUGGAAUUCUCGGGUGCCAA | 0.291 |
| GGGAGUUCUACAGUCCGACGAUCACAUGCAUUUGUGCAUUUCUACUACAAUGGCAUCUUUAUGUCUCUGUAACAUUGGCCUUUUCAUGGCUCCACACUGGGUGGAACCAUAUUCUCUUAGAUCACAUUUAGUAUGGAAUUCUCGGGUGCCAA | 0.435 |
| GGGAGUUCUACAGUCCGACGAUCUGUGAGAAUGUUUUCAAAAAGCCAAAUAAAGUCACAGAUAUUUUAGCUUCUUUCCCAGAAUAAACUUAUCAUGCAUUUGCUUACCUAAAAUUUAAGUUUCAAAUUAGUUCUGGAAUUCUCGGGUGCCAA | 2.19 |
| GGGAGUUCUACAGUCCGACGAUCGAGCACUGGUCACAUUGAAGGUGCUGGGUAAGUGGUAGCUCUUGUUGCUUCCCGUUCAGCGUCACAUCUGCAGUGGAGCCUGAAAAGGCUCCACAUUAGGUCACCUGUGCUGGAAUUCUCGGGUGCCAA | 0.238 |
| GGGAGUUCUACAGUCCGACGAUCCUCUGGGAGGUCACUAAUCUACCCCUGAGGUACCCACUCUUUCUGUCGUAGCUUUCUUCUAGGGCCCCAACAAGCAAGCAUAAACCAGGCUUGCUGGCCAGCACUCCUUGUGGAAUUCUCGGGUGCCAA | 0.347 |
| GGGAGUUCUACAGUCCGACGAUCGAGUUCAGUUCAACAGAGCUGCAGCUUGGGAAGCCCUGUAAGCCCACAGCUUCCUCUCUUAUAUUAAUUGAUGGAAUUUUACUGUAUGUGCCUCUGUACAAGAUGUAGCUUGGAAUUCUCGGGUGCCAA | 0.328 |

Study 3 — method: protein binding microarray; molecule type: double-stranded DNA, one strand shown; matrix: in vitro; concentration: not given; baseline: not given; reading: higher = stronger binding
Target: Histone acetyltransferase KAT6A, winged helix 2, GST fusion (KAT6A, Homo sapiens, UniProt Q92794, residues 85-181)
Notes: 8-mer, flanks averaged, mean of 2 arrays, mostly near background
Target sequence (chain): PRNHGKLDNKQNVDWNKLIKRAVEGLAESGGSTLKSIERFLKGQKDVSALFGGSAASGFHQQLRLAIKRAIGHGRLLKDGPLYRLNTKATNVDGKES
| Strand | E-score |
| --- | --- |
| CCAACACG | 0.0582 |
| AAAAATCC | 0.121 |
| ATCGATTC | -0.0792 |
| CAAGTGCG | 0.0389 |
| GTACGGAC | 0.00762 |
| CGAAGTAC | 0.0488 |
| AATTGCCC | -0.00347 |
| CGTGCAAC | 0.0523 |
| CTACCTCC | 0.0541 |
| GATTCGCC | 0.0618 |
| GTTACTGA | 0.0481 |
| CCGCCGCG | 0.244 |
| CAGTAGAG | -0.0848 |
| AGCATCAC | 0.0138 |
| GGGGAGAC | 0.0538 |
| CGGCCGGA | 0.0952 |
| CAAACAGG | 0.0164 |
| TCCTGCAA | -0.0128 |
| AACTCCCT | 0.0208 |
| CCAGGTAC | 0.0548 |
| AGCTGGAC | -0.0665 |
| CAGCATCA | 0.176 |
| CTTGATCA | 0.0286 |
| CCGGTATA | 0.00953 |
| GCGCAGGA | -0.0711 |

Study 4 — method: aptamer microarray, sandwich; molecule type: DNA with 2'F-ANA; matrix: in vitro; concentration: 200 nM; added: Cy3 exosite-II aptamer, 400 nM; reading: higher = stronger binding; strand: GGTTGGTGTGGTTGG
Target: Prothrombin, mature alpha-thrombin (F2, Homo sapiens, UniProt P00734)
Notes: whole 15-mer aptamer, many near background
| Modification | mean fluorescence intensity [a.u.] |
| --- | --- |
| 2'F-ANA at 1 2 8 9 10 13 | 50.1 |
| 2'F-ANA at 1 4 7 9 10 14 15 | 45.3 |
| 2'F-ANA at 1 4 5 6 7 11 14 15 | 49.3 |
| 2'F-ANA at 1 2 4 6 7 8 9 10 11 12 14 15 | 53.3 |
| 2'F-ANA at 1 3 9 12 13 14 | 200 |
| 2'F-ANA at 1 2 3 5 6 14 | 47.6 |
| 2'F-ANA at 3 4 5 7 8 9 12 14 | 144 |
| 2'F-ANA at 1 4 6 8 9 13 14 15 | 77 |
| 2'F-ANA at 1 2 4 5 6 8 9 10 12 14 | 51.6 |
| 2'F-ANA at 2 3 4 7 9 10 14 15 | 180 |
| 2'F-ANA at 2 4 5 10 11 | 47.5 |
| 2'F-ANA at 1 2 4 5 7 9 10 12 13 15 | 44.7 |
| 2'F-ANA at 1 3 4 5 6 8 10 11 15 | 47.8 |
| 2'F-ANA at 1 5 6 7 9 10 12 14 15 | 45.1 |
| 2'F-ANA at 1 3 5 10 14 15 | 44.7 |
| 2'F-ANA at 1 2 5 6 7 12 13 | 79.9 |
| 2'F-ANA at 1 5 9 10 13 14 15 | 47.7 |

Excerpt of the above (study 1):
| Strand | bound/input enrichment |
| --- | --- |
| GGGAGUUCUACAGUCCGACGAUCUUUGUAUUUAUGCUAAGCACACGUGCUGGUGGUCUUGGCAUCAAUCUUGCAACUGCUGAUGUAGUCAUUUUAUAUGACUCAGAUUGGAAUCCGCAAGUUGAUCUUCAGGCUAUGGACCGUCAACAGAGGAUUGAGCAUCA | 0.18 ratio |
| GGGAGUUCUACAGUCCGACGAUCGGUGGGGUGGUCAUUGCCGUUUGAGCUGCUGAUUUUCAUGAGUCGCCUUCAAAACUCUCGUGUAGGGUUGACACUGUAAGGGGUGGGGGGAUCCAGCUUAUUCUUUUAUUUUCAAGUCCACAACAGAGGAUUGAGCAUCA | 0.532 ratio |
| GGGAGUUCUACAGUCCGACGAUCAACAGAUUGUCUUUAAGCAUUCCAAGCGAGAAUGCUGGGGUGAUCAUUGUUGCCCAUAUAUAGUAAUACUGAGCUUUAAUGCUGUUCCAUGUUACAUUGAUGUUCUUCUCCAGAAUUGUUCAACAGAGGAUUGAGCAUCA | 0.355 ratio |
| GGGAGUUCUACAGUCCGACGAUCGUGACAGGUGUUAAGAUUUCCCCUCAGCAAAGAAGUGCAGUAGUCACCAUAAUUCCAUCUGUGGUGAGUGCCAGUCAGAUAAAAGAGCUGGUCCCAGACCUCAGUUUAGACAUGGGAACUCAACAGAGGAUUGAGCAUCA | 0.327 ratio |
| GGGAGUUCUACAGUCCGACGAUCAGGAGGAGGUUAAAGGGUGAGAGUGGGGUGGAAGACUGUGUCAUGGCUCUGGAGACAUUGUUUAGUGUCCUGCUUUCUCUGUGCAGACUGAUGGCCCCUUACACGCCCUUUCUGACUGAGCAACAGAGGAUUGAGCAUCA | 0.0853 ratio |
| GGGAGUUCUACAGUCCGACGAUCUAAGUUAAGCUUUUAAUCUUUGUAAAUUCUUAACAUUUUUAUAUUGCCAUGUUUAUUUUGUUUGGGUAAUUUGGUUCAUUAAGUACAUAGCUAAGGUACAUCUUUCAUUUUUCAGUAAUUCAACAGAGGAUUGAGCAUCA | 1.28 ratio |
